{"data": "Measured values gathered from unrelated publications", "note": "A part holds a random share of what one study measured."}
{"data": "Set 1", "target": "Myc proto-oncogene protein, bHLH-zipper, MAX partner unstated (MYC, Homo sapiens, UniProt P01106, residues 368-449)", "method": "protein-binding microarray", "molecule type": "double-stranded DNA, one strand shown", "medium": "in vitro", "tested at": "not given", "setting": "k-mer, scored over probes, only values ≥0.25", "direction": "higher = stronger binding", "sequence of UniProt P01106 (368-449, looked up)": "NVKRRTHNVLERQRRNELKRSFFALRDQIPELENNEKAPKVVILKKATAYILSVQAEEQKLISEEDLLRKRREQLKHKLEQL"}
{"Strand": "CCCGCGCC", "E-score": 0.288}
{"Strand": "AGGGGAGG", "E-score": 0.34}
{"Strand": "GCCTCGCC", "E-score": 0.298}
{"Strand": "ACCATGGG", "E-score": 0.288}
{"Strand": "CAGCCATG", "E-score": 0.317}
{"Strand": "AAGCGTGG", "E-score": 0.407}
{"Strand": "AAAGCGTG", "E-score": 0.394}
{"Strand": "CGTGTGCC", "E-score": 0.37}
{"Strand": "CGGACCAC", "E-score": 0.251}
{"Strand": "GCACACCA", "E-score": 0.339}
{"Strand": "AGGACATG", "E-score": 0.259}
{"Strand": "CGTGACCA", "E-score": 0.37}
{"Strand": "CGTGTAAA", "E-score": 0.314}
{"Strand": "CATGGCGG", "E-score": 0.36}
{"Strand": "CGTCCGCA", "E-score": 0.256}
{"Strand": "CCCCTCGA", "E-score": 0.251}
{"Strand": "ATGCGGGC", "E-score": 0.309}
{"Strand": "GCGCACCC", "E-score": 0.303}
{"Strand": "GCATGTTA", "E-score": 0.332}
{"Strand": "ACGCCACA", "E-score": 0.293}
{"Strand": "CATGTGCA", "E-score": 0.454}
{"Strand": "GTGCACGA", "E-score": 0.347}
{"Strand": "CAGGGGCG", "E-score": 0.261}
{"data": "Set 2", "target": "Sal-like protein 4, full length isoform A (SALL4, Homo sapiens, UniProt Q9UJQ4, residues 1-1053)", "method": "universal PBM", "molecule type": "double-stranded DNA, one strand shown", "medium": "in vitro", "tested at": "600 nM", "setting": "8-mer, flanks averaged, mean of replicates", "direction": "higher = stronger binding", "sequence of UniProt Q9UJQ4 (whole entry, looked up)": "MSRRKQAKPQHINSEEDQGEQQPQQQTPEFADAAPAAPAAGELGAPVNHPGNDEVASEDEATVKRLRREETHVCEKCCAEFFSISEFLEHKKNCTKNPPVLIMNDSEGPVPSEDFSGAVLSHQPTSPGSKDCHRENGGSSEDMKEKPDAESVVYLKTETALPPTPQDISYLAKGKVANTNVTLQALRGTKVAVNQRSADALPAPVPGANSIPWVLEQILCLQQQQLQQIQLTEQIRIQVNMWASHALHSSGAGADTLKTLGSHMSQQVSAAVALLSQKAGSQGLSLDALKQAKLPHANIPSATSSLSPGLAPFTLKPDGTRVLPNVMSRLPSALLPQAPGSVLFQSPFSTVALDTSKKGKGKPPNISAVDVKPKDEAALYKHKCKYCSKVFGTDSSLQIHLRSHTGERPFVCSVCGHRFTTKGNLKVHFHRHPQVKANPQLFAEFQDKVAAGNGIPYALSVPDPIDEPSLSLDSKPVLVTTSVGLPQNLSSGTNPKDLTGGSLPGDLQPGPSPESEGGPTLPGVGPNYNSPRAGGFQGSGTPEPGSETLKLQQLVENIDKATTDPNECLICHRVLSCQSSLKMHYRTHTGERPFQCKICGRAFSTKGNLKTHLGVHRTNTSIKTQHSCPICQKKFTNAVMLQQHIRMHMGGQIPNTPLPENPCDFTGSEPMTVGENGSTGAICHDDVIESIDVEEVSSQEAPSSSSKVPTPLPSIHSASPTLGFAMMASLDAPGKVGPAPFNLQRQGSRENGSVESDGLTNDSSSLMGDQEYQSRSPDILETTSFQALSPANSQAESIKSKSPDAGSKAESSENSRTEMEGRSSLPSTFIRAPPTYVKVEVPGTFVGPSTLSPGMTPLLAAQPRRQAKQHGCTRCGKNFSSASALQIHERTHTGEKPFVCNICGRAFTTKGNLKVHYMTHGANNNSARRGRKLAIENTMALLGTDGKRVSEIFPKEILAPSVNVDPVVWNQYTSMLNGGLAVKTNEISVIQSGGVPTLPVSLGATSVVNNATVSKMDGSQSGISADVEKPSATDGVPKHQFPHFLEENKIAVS"}
{"Strand": "GCGCGTGA", "E-score": -0.164}
{"Strand": "AAATTCAT", "E-score": 0.34}
{"Strand": "GGACATCA", "E-score": 0.0699}
{"Strand": "AACTGTTC", "E-score": -0.0166}
{"Strand": "CGTATGCA", "E-score": 0.0985}
{"Strand": "ACATTTCT", "E-score": 0.192}
{"Strand": "AAACTCGC", "E-score": -0.0392}
{"Strand": "ACCCAATA", "E-score": 0.0748}
{"Strand": "CGCTTGCA", "E-score": -0.0256}
{"Strand": "GGTCCTGA", "E-score": -0.261}
{"Strand": "GTGCCCGA", "E-score": -0.237}
{"Strand": "CGGTGACA", "E-score": -0.194}
{"Strand": "CCTTGATC", "E-score": -0.0477}
{"Strand": "GCCTTGTA", "E-score": 0.0691}
{"Strand": "CAGAAGCG", "E-score": -0.0175}
{"Strand": "GGCGTGTA", "E-score": -0.0568}
{"Strand": "AAACATCA", "E-score": 0.218}
{"Strand": "GAAACCTA", "E-score": -0.0199}
{"Strand": "ACAGGAAA", "E-score": 0.192}
{"data": "Set 3", "target": "Interferon regulatory factor 5, full length, phosphomimetic (IRF5, Homo sapiens, UniProt Q13568-2, residues 1-514, K96S/S451D/S453D/S456D/S462D)", "method": "protein-binding microarray", "molecule type": "double-stranded DNA, one strand shown", "medium": "in vitro", "tested at": "250 nM", "setting": "60-bp whole probe", "with": "salmon DNA 0.4 mg/ml", "baseline": "random background probes", "direction": "higher = stronger binding", "constant ends, left off below": "GCCTAGCAC … GTCTTGATTCGCTTGACGCTGCTG"}
{"Strand": "TTAGATTTCAATCTCGATTAGTGCTAG", "log fluorescence [z-score]": 1.4}
{"Strand": "GACGGTTTCGACTATCGGGCCGTGCTA", "log fluorescence [z-score]": 6.86}
{"Strand": "TTAGAACTGAGGCTCGATTAGTGCTAG", "log fluorescence [z-score]": -0.383}
{"Strand": "TCATTTTCATATATATAACTGTGCTAG", "log fluorescence [z-score]": 3.32}
{"Strand": "GAATGAATGGACATTTCTTCGTGCTAG", "log fluorescence [z-score]": 0.206}
{"Strand": "TTAGGACTGGGGTTTCGTTTAGTGCTA", "log fluorescence [z-score]": 2.34}
{"Strand": "TTAGGACAGGGTATCGGTTAGTGCTAG", "log fluorescence [z-score]": 2.22}
{"Strand": "TTAGATATCAGTATAGATTAGTGCTAG", "log fluorescence [z-score]": 1.59}
{"Strand": "CCCCCAGGATTCAATTACCAGTGCTAG", "log fluorescence [z-score]": -0.243}
{"Strand": "TTAGGTATCCTTTTGCTTTAGTGCTAG", "log fluorescence [z-score]": 0.647}
{"Strand": "TTAGAACTAAGTTTCGATTAGTGCTAG", "log fluorescence [z-score]": 9.46}
{"Strand": "GACGAACTGGAGTATCGAGACGTGCTA", "log fluorescence [z-score]": 0.952}
{"Strand": "TTAGCTATCGGGTATCGATTAGTGCTA", "log fluorescence [z-score]": 6.6}
{"Strand": "AGCCAGGCAACCTATGGCCTGTGCTAG", "log fluorescence [z-score]": -0.83}
{"Strand": "TCAACTTTGACTTAAGAACTGTGCTAG", "log fluorescence [z-score]": 0.0138}
{"Strand": "GGGAGATGACTAAGAGGGGTGTGCTAG", "log fluorescence [z-score]": -0.263}
{"Strand": "GACGGTGCCCTTTTCCTGACGTGCTAG", "log fluorescence [z-score]": -0.22}
{"Strand": "GATTTTTTCTGCTTAGAGCTGTGCTAG", "log fluorescence [z-score]": 1.41}
{"Strand": "TCATGTCTTAGATTCCTACTGTGCTAG", "log fluorescence [z-score]": 0.361}
{"data": "Set 4", "target": "Ras GTPase-activating protein-binding protein 1, full length (G3BP1, Homo sapiens, UniProt Q13283)", "method": "RNA Bind-n-Seq", "molecule type": "RNA", "medium": "in vitro", "tested at": "200 nM", "setting": "whole 134-nt RNA, ends assumed", "with": "150 mM LiCl", "baseline": "input library", "direction": "higher = stronger binding", "each molecule": "7-deaza-guanosine replaces G", "sequence of UniProt Q13283 (whole entry, looked up)": "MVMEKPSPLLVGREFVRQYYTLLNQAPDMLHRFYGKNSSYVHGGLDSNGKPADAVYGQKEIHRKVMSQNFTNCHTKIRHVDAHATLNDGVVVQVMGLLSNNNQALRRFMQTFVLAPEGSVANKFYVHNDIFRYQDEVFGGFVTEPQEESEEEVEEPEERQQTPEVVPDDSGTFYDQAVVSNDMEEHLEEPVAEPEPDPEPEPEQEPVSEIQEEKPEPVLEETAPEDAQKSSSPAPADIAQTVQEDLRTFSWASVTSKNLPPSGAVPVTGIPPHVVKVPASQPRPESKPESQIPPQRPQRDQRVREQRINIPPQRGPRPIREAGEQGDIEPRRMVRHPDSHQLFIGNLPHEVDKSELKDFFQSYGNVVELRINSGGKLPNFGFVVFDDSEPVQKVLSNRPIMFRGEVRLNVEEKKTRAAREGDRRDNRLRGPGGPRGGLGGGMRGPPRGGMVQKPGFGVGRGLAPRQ"}
{"Strand": "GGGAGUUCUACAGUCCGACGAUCAGUCCUGUGCUACACAUCGUAUGUACCGAAUCGGGUGGGAAAAAGGGAAAAAAAGGGAAAGUAUUAUGUUACGCCGUUCGGAUCUGCACUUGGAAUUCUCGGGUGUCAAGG", "log2 enrichment": -0.128}
{"Strand": "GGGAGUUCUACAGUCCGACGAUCGUCCUGUGCUACACAUCGUAUGUACCGAAUCGGGGAAAGGGGUUUUUUUGGGGUGGGGAAAGUAUUAUGUUACGCCGUUCGGAUCUGCACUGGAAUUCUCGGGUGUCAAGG", "log2 enrichment": -0.166}
{"Strand": "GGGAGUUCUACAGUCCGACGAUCCAAGUCCUGUGCUACACAUCGUAUGUACCGAAUCGGGGUUUUGGUUUUGGUUUUGGAAAGUAUUAUGUUACGCCGUUCGGAUCUGCACUUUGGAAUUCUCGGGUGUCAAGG", "log2 enrichment": -1.36}
{"Strand": "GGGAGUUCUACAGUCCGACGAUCAGUCCUGUGCUACACAUCGUAUGUACCGAAUCGGAAAAAGGAAAAAGGAAAAAAAGGAAAGUAUUAUGUUACGCCGUUCGGAUCUGCACUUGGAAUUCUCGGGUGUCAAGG", "log2 enrichment": -1.39}
{"Strand": "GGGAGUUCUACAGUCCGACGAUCCAAGUCCUGUGCUACACAUCGUAUGUACCGAAUCGGGAGGGAAAAAGGGUUUGGGAAAGUAUUAUGUUACGCCGUUCGGAUCUGCACUUCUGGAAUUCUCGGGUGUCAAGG", "log2 enrichment": -1.06}
{"Strand": "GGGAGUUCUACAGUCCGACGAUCAGUCCUGUGCUACACAUCGUAUGUACCGAAUCGGUUUUUGGGUUUUUGGGUUUUUGGAAAGUAUUAUGUUACGCCGUUCGGAUCUGCACUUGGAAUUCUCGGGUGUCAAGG", "log2 enrichment": -0.574}
{"Strand": "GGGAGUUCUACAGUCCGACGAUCCCUGUGCUACACAUCGUAUGUACCGAAUCGGGAAAAAGGGAAAAAAAGGGUUUUUUUGGGAAAGUAUUAUGUUACGCCGUUCGGAUCUGCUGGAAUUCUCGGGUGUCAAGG", "log2 enrichment": -0.633}
{"Strand": "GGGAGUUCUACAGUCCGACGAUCCUGUGCUACACAUCGUAUGUACCGAAUCGGGGUUUUUGGGGAAAAAGGGGAAAAAAAGGGGAAAGUAUUAUGUUACGCCGUUCGGAUCUGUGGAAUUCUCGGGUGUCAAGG", "log2 enrichment": -0.0379}
{"data": "Set 5", "target": "Histone acetyltransferase KAT6A, winged helix 1, GST fusion (KAT6A, Homo sapiens, UniProt Q92794, residues 1-85)", "method": "protein binding microarray", "molecule type": "double-stranded DNA, one strand shown", "medium": "in vitro", "tested at": "not given", "setting": "8-mer, flanks averaged, mean of 2 arrays, mostly near background", "baseline": "not given", "direction": "higher = stronger binding", "Construct (chain)": "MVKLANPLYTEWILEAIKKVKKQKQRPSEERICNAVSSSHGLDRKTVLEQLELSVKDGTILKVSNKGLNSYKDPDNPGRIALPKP"}
{"Strand": "AGCCCTAT", "E-score": -0.0655}
{"Strand": "AAAGCATG", "E-score": -0.091}
{"Strand": "CGCCATAA", "E-score": 0.0533}
{"Strand": "CGCGTTAC", "E-score": 0.374}
{"Strand": "GCTCAGCA", "E-score": -0.128}
{"Strand": "AAACATAA", "E-score": -0.122}
{"Strand": "GCGGGAGA", "E-score": 0.271}
{"Strand": "GCGGAGGA", "E-score": 0.194}
{"Strand": "ATGAGTAC", "E-score": 0.0964}
{"Strand": "GCAACACC", "E-score": 0.111}
{"Strand": "ACGTCGCA", "E-score": 0.171}
{"Strand": "TCAGAGGA", "E-score": -0.1}
{"Strand": "CCGTGGCA", "E-score": 0.157}
{"Strand": "CGCTAACC", "E-score": 0.322}
{"Strand": "GTCTACCA", "E-score": -0.196}
{"Strand": "GTTAAAAA", "E-score": -0.128}
{"Strand": "AAGGTACT", "E-score": -0.0481}
{"Strand": "CCATTCCC", "E-score": -0.058}
{"Strand": "ACTAAGGA", "E-score": -0.153}
{"Strand": "CATCTGTC", "E-score": -0.0404}
{"Strand": "TAGTTAAA", "E-score": -0.0527}
